Measured values of several laboratories.
Protocols differ between the studies behind these lines. Numbers after ± are the reported error.
T1: DNA aptamer; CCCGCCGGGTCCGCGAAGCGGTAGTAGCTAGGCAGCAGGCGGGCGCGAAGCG
Chain of UniProt P11388 (whole entry, looked up): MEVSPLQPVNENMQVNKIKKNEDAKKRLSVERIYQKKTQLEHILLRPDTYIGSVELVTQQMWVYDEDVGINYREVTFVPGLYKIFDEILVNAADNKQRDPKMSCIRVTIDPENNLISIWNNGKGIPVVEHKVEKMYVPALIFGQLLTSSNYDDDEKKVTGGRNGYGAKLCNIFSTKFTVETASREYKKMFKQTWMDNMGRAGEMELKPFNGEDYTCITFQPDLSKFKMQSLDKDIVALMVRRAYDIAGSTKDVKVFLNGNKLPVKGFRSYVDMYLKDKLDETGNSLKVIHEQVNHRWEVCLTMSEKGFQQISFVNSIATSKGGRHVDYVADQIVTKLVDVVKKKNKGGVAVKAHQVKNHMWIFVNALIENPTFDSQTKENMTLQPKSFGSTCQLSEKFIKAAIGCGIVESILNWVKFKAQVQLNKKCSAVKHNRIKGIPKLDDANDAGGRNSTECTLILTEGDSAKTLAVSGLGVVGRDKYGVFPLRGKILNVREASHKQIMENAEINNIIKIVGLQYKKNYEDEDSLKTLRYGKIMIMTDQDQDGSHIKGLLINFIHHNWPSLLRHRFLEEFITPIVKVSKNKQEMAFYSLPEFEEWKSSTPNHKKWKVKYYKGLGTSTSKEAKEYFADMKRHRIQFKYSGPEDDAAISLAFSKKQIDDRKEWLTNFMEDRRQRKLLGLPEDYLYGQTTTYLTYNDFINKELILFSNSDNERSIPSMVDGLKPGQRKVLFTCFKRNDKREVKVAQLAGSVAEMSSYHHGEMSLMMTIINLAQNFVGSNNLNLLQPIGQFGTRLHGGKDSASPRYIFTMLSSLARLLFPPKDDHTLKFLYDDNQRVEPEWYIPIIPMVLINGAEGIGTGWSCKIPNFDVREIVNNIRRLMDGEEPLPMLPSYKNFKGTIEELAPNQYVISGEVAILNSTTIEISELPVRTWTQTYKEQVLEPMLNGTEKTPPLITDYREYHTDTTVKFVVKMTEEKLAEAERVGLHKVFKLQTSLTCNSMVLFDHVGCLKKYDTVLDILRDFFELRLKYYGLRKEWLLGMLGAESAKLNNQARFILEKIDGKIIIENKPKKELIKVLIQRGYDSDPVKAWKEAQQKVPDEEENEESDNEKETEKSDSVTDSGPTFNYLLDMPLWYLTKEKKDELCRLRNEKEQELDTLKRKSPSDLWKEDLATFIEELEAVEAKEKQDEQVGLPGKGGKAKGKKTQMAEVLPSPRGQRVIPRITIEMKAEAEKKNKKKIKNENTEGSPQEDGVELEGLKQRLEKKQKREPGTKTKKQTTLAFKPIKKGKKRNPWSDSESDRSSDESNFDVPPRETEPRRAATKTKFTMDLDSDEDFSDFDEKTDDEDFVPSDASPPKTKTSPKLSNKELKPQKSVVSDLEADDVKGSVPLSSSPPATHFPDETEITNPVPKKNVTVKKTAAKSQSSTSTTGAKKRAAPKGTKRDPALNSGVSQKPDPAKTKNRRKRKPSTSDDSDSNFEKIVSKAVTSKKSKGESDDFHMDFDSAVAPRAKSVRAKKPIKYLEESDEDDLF
Chain of UniProt P02769 (whole entry, looked up): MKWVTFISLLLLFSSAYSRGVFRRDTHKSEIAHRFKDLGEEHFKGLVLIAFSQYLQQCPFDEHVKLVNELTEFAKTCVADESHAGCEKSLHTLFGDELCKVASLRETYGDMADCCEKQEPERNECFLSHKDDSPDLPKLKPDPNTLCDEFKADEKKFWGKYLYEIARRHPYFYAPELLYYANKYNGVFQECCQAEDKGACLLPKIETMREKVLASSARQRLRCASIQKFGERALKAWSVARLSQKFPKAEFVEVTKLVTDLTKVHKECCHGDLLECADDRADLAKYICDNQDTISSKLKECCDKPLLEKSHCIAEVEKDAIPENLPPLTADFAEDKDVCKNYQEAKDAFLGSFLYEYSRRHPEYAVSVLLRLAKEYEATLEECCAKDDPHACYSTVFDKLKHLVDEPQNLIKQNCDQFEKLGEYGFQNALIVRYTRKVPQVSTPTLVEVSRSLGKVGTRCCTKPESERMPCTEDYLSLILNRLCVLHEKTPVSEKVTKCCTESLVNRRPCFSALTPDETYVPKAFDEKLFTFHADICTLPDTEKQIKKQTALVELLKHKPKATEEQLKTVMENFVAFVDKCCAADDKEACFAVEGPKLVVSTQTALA

Substance = N#CCC1CCN(c2nc(Nc3ccc(N4CCC(O)CC4)cc3)c3c(=O)[nH]ncc3n2)CC1; assay = Olink multiplex, item: CDCP1; test system = human, serum; setting = 40 mg, day 15, unit not given; how to read = relative to: placebo; measurement = serum level change; value = -1.27
Substance = COC(=O)Nc1c(N)nc(-c2nn(Cc3ccccc3F)c3ncc(F)cc23)nc1N; test system = healthy white men; setting = dose not given, day 15, 360 h, LS mean difference, together with: sildenafil 100 mg; how to read = relative to: placebo; measurement = seated DBP maximum decrease; value = -1.01 mmHg
Substance = heparin; target or system = feline infectious peritonitis virus; assay = plaque; test system = fcwf-4, type I strain KU-2; setting = concentration not given; measurement = infection efficiency; value = decreased
Substance = CCOc1ccc(-c2nc3ccc(-c4nc5ccc(N6CCN(C)CC6)cc5[nH]4)cc3[nH]2)cc1; target or system = Albumin (ALB, Bos taurus, UniProt P02769); test system = PBS; setting = 1 µM, 1 h, together with: 25 mg/mL albumin; measurement = fluorescence quantum yield; value = 0.115 ± 0.003
Substance = CC[C@H](C)[C@H](NC(=O)[C@H](CCCCN)NC(=O)[C@H](CCC(=O)O)NC(=O)[C@H](CCCCN)NC(=O)[C@H](CO)NC(=O)[C@H](CCCCN)NC(=O)[C@H](CCCNC(=N)N)NC(=O)[C@H](Cc1ccccc1)NC(=O)[C@H](Cc1ccccc1)NC(=O)[C@H](CC(=O)O)NC(=O)CNC(=O)[C@H](CC(C)C)NC(=O)[C@@H](N)CC(C)C)C(=O)NCC(=O)N[C@@H](CCCCN)C(=O)N[C@@H](CCC(=O)O)C(=O)N[C@@H](Cc1ccccc1)C(=O)N[C@@H](CCCCN)C(=O)N[C@@H](CCCNC(=N)N)C(=O)N[C@H](C(=O)N[C@H](C(=O)N[C@@H](CCC(N)=O)C(=O)N[C@@H](CCCNC(=N)N)C(=O)N[C@H](C(=O)N[C@@H](CCCCN)C(=O)N[C@@H](CC(=O)O)C(=O)N[C@@H](Cc1ccccc1)C(=O)N[C@@H](CC(C)C)C(=O)N[C@@H](CCCNC(=N)N)C(=O)N[C@@H](CC(N)=O)C(=O)N[C@@H](CC(C)C)C(=O)N[C@H](C(=O)N1CCC[C@H]1C(=O)N[C@@H](CCCNC(=N)N)C(=O)N[C@H](C(=O)N[C@@H](CCC(=O)O)C(=O)N[C@@H](CO)C(=O)O)[C@@H](C)O)C(C)C)[C@@H](C)CC)C(C)C)[C@@H](C)CC; target or system = Clostridium perfringens; test system = ATCC 13124; measurement = MIC; value = 22.4 µM
Substance = OC[C@H]1O[C@@H](O[C@@H]2[C@@H](O)[C@H](O[C@@H]3[C@@H](O)[C@H](O[C@@H]4[C@@H](O)[C@H](O[C@H]5[C@H](O)[C@@H](CO)OC(O)[C@@H]5O)O[C@H](CO)[C@H]4O)O[C@H](CO)[C@H]3O)O[C@H](CO)[C@H]2O)[C@H](O)[C@@H](O)[C@@H]1O (some centres unmarked); target or system = Bacteroides thetaiotaomicron; assay = binding, ITC; setting = pH 7.0, 25 °C, middle domain; measurement = ΔH; value = -12.9 kcal/mol
Substance = C[C@H]1O[C@@H](O[C@H]2[C@@H](O)C[C@H](O[C@H]3[C@@H](O)C[C@H](O[C@H]4CC[C@@]5(C)[C@H](CC[C@@H]6[C@@H]5CC[C@]5(C)[C@@H](C7=CC(=O)OC7)CC[C@]65O)C4)O[C@@H]3C)O[C@@H]2C)C[C@H](O)[C@@H]1O; target or system = human adenovirus C5; assay = progeny virus production; test system = A549; setting = 72 h; measurement = EC50; value = 75 nM
Substance = C=C1[C@@H](O)[C@@H]2O[C@]3(CC[C@H](/C=C/[C@@H](C)[C@@H]4CC(C)=C[C@@]5(O[C@H](C[C@@](C)(O)C(=O)O)CC[C@H]5O)O4)O3)CC[C@H]2O[C@@H]1[C@@H](O)C[C@H](C)[C@H]1O[C@@]2(CCCCO2)CC[C@H]1C; target or system = T1, DNA aptamer; assay = microscale thermophoresis; setting = pH 7.5, 25 °C, NaCl 150 mM; measurement = Kd; value = 432 nM
Substance = Cc1c(S(=O)(=O)N2CCc3[nH]ncc3C2)cc(C(=O)NCc2c(F)ccc3occc23)n1C; target or system = SARS-CoV-2; assay = viral replication; test system = Huh7.5, WA1/2020; measurement = EC50; value = 18 nM
Substance = COc1cc([C@@H]2c3cc4c(cc3[C@@H](O[C@@H]3O[C@@H]5CO[C@@H](C)O[C@H]5[C@H](O)[C@H]3O)[C@H]3COC(=O)[C@H]23)OCO4)cc(OC)c1O; target or system = DNA topoisomerase 2-alpha (TOP2A, Homo sapiens, UniProt P11388); assay = DNA cleavage; setting = 200 µM; measurement = mean linear DNA; value = 35.6%
Substance = COc1ccccc1CNC(=O)c1cc(S(=O)(=O)N2CCC(C)CC2)c(C)n1C; target or system = SARS-CoV-2; assay = viral replication; test system = Huh7.5, WA1/2020; measurement = EC50; value = > 100000 nM
Substance = C[C@@H](NS(=O)(=O)c1cccc([N+](=O)[O-])c1)c1cccc2ccccc12; target or system = SARS-CoV-2; assay = viral replication; test system = Vero E6; measurement = EC50; value = 38000 nM
Substance = CO/N=C(\C(=O)N[C@@H]1C(=O)N2C(C(=O)O)=C(COC(C)=O)CS[C@H]12)c1csc(N)n1; target or system = Pseudomonas aeruginosa; test system = clinical isolate RKI-No_493/15; measurement = MIC; value = > 16 µg/mL
Substance = Cc1c(S(=O)(=O)N2CCn3cncc3C2)cc(C(=O)NCc2c(F)ccnc2N2CCCC2)n1C; target or system = SARS-CoV-2; assay = viral replication; test system = Huh7.5 cells, WA1/2020; measurement = EC50; value = 45 nM
Substance = CC(C)C[C@H](NC(=O)OCc1ccccc1)C(=O)N[C@H](C=O)C[C@@H]1CCCNC1=O; target or system = SARS-CoV-2; assay = viral replication, RT-qPCR viral load; test system = Calu-3; setting = 72 h; measurement = EC90; value = 6600 ± 1800 nM
Substance = OC[C@H]1O[C@@H](O[C@@H]2[C@@H](O)[C@H](O[C@H]3[C@H](O)[C@@H](CO)OC(O)[C@@H]3O)O[C@H](CO)[C@H]2O)[C@H](O)[C@@H](O)[C@@H]1O (some centres unmarked); target or system = Bacteroides thetaiotaomicron; assay = binding, ITC; setting = pH 7.0, 25 °C, distal domain; measurement = ΔG; value = -24.8 kcal/mol
Substance = Cc1cn([C@H]2C[C@H](N=[N+]=[N-])[C@@H](CO)O2)c(=O)[nH]c1=O; target or system = HIV-1; assay = viral replication, reverse transcriptase; test system = human PBMC, 92HT599 (CXCR4-tropic); measurement = EC50; value = 5 ± 2 nM
Substance = OC[C@H]1O[C@@H](O[C@@H]2[C@@H](O)[C@H](O[C@@H]3[C@@H](O)[C@H](O[C@H]4[C@H](O)[C@@H](CO)OC(O)[C@@H]4O)O[C@H](CO)[C@H]3O)O[C@H](CO)[C@H]2O)[C@H](O)[C@@H](O)[C@@H]1O (some centres unmarked); target or system = Bacteroides thetaiotaomicron; assay = binding, ITC; setting = pH 7.0, 25 °C, distal domain; measurement = -TΔS; value = -4.69 kcal/mol
Substance = CC1COc2ccccc2N1C(=O)C(Cl)Cl (centres unmarked); target or system = glutathione S-transferase; test system = female rhesus monkey liver cytosol; setting = 5 µM, pH 7.4, together with: GSH; measurement = scaled intrinsic clearance; value = 110 mL/min/g liver
Substance = Cc1ccc2nc(C)c(C(=O)NCc3ccccc3)n2c1; target or system = Mycobacterium tuberculosis; assay = growth (>90% inhibition); test system = H37Rv, glycerol-alanine-salts medium; measurement = MIC; value = 0.1 µM
Substance = Fc1ccccc1Cc1nc(-c2nc(C(F)(F)F)n[nH]2)cn2ccnc12; test system = healthy human subjects, both sexes; setting = oral, 10 mg, fed; measurement = subjects with skin TEAEs; value = 0%
Substance = CNCC(NC(=O)c1ccc(-c2ccc3c(c2)OCO3)[nH]1)c1nc(CO)cs1 (centres unmarked); target or system = human immunodeficiency virus 1; assay = viral replication; test system = PBMC; setting = 168 h; measurement = IC50; value = 2600 ± 700 nM
Substance = OC[C@H]1O[C@@H](O[C@@H]2[C@@H](O)[C@H](O[C@@H]3[C@@H](O)[C@H](O[C@@H]4[C@@H](O)[C@H](O[C@@H]5[C@@H](O)[C@H](O[C@H]6[C@H](O)[C@@H](CO)OC(O)[C@@H]6O)O[C@H](CO)[C@H]5O)O[C@H](CO)[C@H]4O)O[C@H](CO)[C@H]3O)O[C@H](CO)[C@H]2O)[C@H](O)[C@@H](O)[C@@H]1O (some centres unmarked); target or system = Bacteroides thetaiotaomicron; assay = binding, ITC; setting = pH 7.0, 25 °C, distal domain; measurement = -TΔS; value = 23.3 kcal/mol
Substance = Cc1c(S(=O)(=O)N2CCc3n[nH]cc3C2)cc(C(=O)NCc2cccc3cnn(C)c23)n1C; target or system = SARS-CoV-2; assay = viral replication; test system = Huh7.5 cells, WA1/2020; measurement = EC50; value = 18 nM
Substance = NCC(NC(=O)c1ccc(-c2ccc3c(c2)OCO3)[nH]1)c1ncc(CO)s1 (centres unmarked); target or system = human immunodeficiency virus 1; assay = viral replication; test system = PBMC; setting = 168 h; measurement = IC50; value = 2900 ± 900 nM
Substance = COC(=O)Nc1c(N)nc(-c2nn(Cc3ccccc3F)c3ncc(F)cc23)nc1N; test system = healthy male humans, plasma; setting = oral, 5 mg single dose, fasting, together with: magnesium/aluminium hydroxide 10 mL single dose; how to read = relative to: with over without antacid; measurement = Cmax ratio; value = 0.543
Substance = Cc1c(S(=O)(=O)N2CCc3[nH]ncc3C2)cc(C(=O)NCc2cccnc2N2CCCC2)n1C; target or system = SARS-CoV-2; assay = viral replication; test system = Huh7.5 cells, WA1/2020; measurement = EC50; value = 86 nM
Substance = Cc1cc(C)c2sc(NC(=O)c3cc4ccccc4o3)nc2n1; target or system = Japanese encephalitis virus; assay = cytopathic effect, neutral red uptake; test system = Vero 76, SA-14; measurement = EC50; value = > 32000 nM
Substance = CCCc1nn(C)c2c(=O)[nH]c(-c3cc(S(=O)(=O)N4CCN(C)CC4)ccc3OCC)nc12; test system = humans, plasma; setting = 100 mg, phase I DDI study, together with: vericiguat; measurement = Cmax; value = 398 ng/mL

Repeated from above:
Substance = CCOc1ccc(-c2nc3ccc(-c4nc5ccc(N6CCN(C)CC6)cc5[nH]4)cc3[nH]2)cc1; target or system = Albumin (ALB, Bos taurus, UniProt P02769); test system = PBS; setting = 1 µM, 1 h, together with: 25 mg/mL albumin; measurement = fluorescence quantum yield; value = 0.115 ± 0.003
Substance = CCCc1nn(C)c2c(=O)[nH]c(-c3cc(S(=O)(=O)N4CCN(C)CC4)ccc3OCC)nc12; test system = humans, plasma; setting = 100 mg, phase I DDI study, together with: vericiguat; measurement = Cmax; value = 398 ng/mL
Substance = Cc1ccc2nc(C)c(C(=O)NCc3ccccc3)n2c1; target or system = Mycobacterium tuberculosis; assay = growth (>90% inhibition); test system = H37Rv, glycerol-alanine-salts medium; measurement = MIC; value = 0.1 µM
Substance = Cc1c(S(=O)(=O)N2CCn3cncc3C2)cc(C(=O)NCc2c(F)ccnc2N2CCCC2)n1C; target or system = SARS-CoV-2; assay = viral replication; test system = Huh7.5 cells, WA1/2020; measurement = EC50; value = 45 nM
Substance = Cc1cn([C@H]2C[C@H](N=[N+]=[N-])[C@@H](CO)O2)c(=O)[nH]c1=O; target or system = HIV-1; assay = viral replication, reverse transcriptase; test system = human PBMC, 92HT599 (CXCR4-tropic); measurement = EC50; value = 5 ± 2 nM
